{"data": "Published values collected from several papers", "organism": "Human immunodeficiency virus 1", "note": "Each line is one published result; not all experiments were run side by side."}
{"Compound": "N#C[C@]1(CO)O[C@@H](n2cnc3c(N)nc(N)nc32)C[C@@H]1O", "assay": "cytopathic effect, MTT", "system": "MT4", "IC50": "0.2 nM"}
{"Compound": "OCCn1c(Cl)nc2cc(Br)c(Br)cc21", "assay": "viral replication", "system": "TZM-bl", "IC50": "3860 nM"}
{"Compound": "Cc1ccnc2c1NC(=O)c1cccnc1N2C1CC1", "assay": "viral replication, inhibitor", "system": "HOS", "IC50": "36 nM"}
{"Compound": "Cc1ccnc2c1NC(=O)c1cccnc1N2C1CC1", "assay": "viral replication", "system": "TZM-bl", "IC50": "5 nM"}
{"Compound": "C[C@]1(CO)O[C@@H](n2cnc3c(N)nc(N)nc32)C[C@@H]1O", "assay": "cytopathic effect, MTT", "system": "MT4", "IC50": "247 nM"}
{"Compound": "O=c1c(O)c(-c2ccc(O)cc2)oc2cc(O)cc(O)c12", "assay": "viral replication, inhibitor", "system": "TZM-bl, NL43", "setting": "48 h", "IC50": "2450 nM"}
{"Compound": "N=C(N)NC[C@H]1Cc2ccccc2[C@@H]1NC(=O)C(=O)Nc1ccc(Cl)c(F)c1", "assay": "viral replication, inhibitor", "system": "Cf2Th-CD4/CCR5", "IC50": "3100 nM"}
{"Compound": "O=c1c(O)c(-c2ccc(O)c(O)c2)oc2cc(O)cc(O)c12", "assay": "viral replication, inhibitor", "system": "TZM-bl, NL43", "setting": "48 h", "IC50": "2490 nM"}
{"Compound": "CC1=C[C@]23C(=O)[C@@H](C=C(CO)[C@@H](O)[C@]2(O)[C@H]1O)[C@H]1[C@@H](C[C@H]3C)C1(C)C", "assay": "viral replication", "system": "MT4, NL43", "IC50": "> 1000 nM"}
{"Compound": "NC(=S)n1nc(-c2ccc([N+](=O)[O-])cc2)c(/N=N/c2cccc(Cl)c2)c1O", "assay": "viral replication, ELISA", "system": "CEM-T4, NL43", "setting": "9 days", "IC50": "100 to 300 nM"}
{"Compound": "C#C[C@]1(CO)O[C@@H](n2cnc3c(O)ncnc32)C[C@@H]1O", "assay": "cytopathic effect, MTT", "system": "MT4", "IC50": "276 nM"}
{"Compound": "CC1=C[C@]23C(=O)[C@@H](C=C(CO)[C@@H](O)[C@]2(O)[C@H]1OC(=O)c1ccc2ccccc2c1)[C@H]1[C@@H](C[C@H]3C)C1(C)C", "assay": "viral replication", "system": "MT4, NL43", "IC50": "1.3 nM"}
{"Compound": "CNc1nc(N)nc2c1ncn2[C@H]1C[C@H](O)[C@](CO)(CF)O1", "assay": "cytopathic effect, MTT", "system": "MT4", "IC50": "165 nM"}
{"Compound": "C=C(C)[C@]12C[C@@H](COC(=O)c3ccccc3)[C@@]34OC5(O[C@@H]1[C@@H]3[C@@H]1O[C@]1(COC(C)=O)[C@@H](OC(C)=O)[C@@]1(O)[C@H]4[C@H]([C@H](C)[C@@H]1OC(=O)c1ccccc1)[C@H](C)CCCCCC[C@H]5OC(C)=O)O2", "assay": "viral replication, inhibitor", "system": "MT4, NL43", "setting": "72 h", "IC50": "≥ 1 nM"}
{"Compound": "Nc1nc(F)nc2c1ncn2[C@H]1C[C@H](O)[C@](CO)(CF)O1", "assay": "cytopathic effect, MTT", "system": "MT4", "IC50": "24.8 nM"}
{"Compound": "Cc1ccnc2c1NC(=O)c1cccnc1N2C1CC1", "assay": "viral replication", "system": "human PBMC", "setting": "6 days", "IC50": "60 nM"}
{"note": "Repeated from above:"}
{"Compound": "OCCn1c(Cl)nc2cc(Br)c(Br)cc21", "assay": "viral replication", "system": "TZM-bl", "IC50": "3860 nM"}
{"Compound": "Cc1ccnc2c1NC(=O)c1cccnc1N2C1CC1", "assay": "viral replication, inhibitor", "system": "HOS", "IC50": "36 nM"}
